Values quoted from earlier work as cited in several papers.
± marks the error that the study gave. ≈ marks a conversion by molar mass, not a printed value.

| Compound | test | test system | setting | how to read | measurement | result |
| --- | --- | --- | --- | --- | --- | --- |
| C=CC(O)c1ccc(OC)cc1 (stereo not drawn) | – | male rat, kidney microsomes | – | – | catalytic efficiency | 4 mL/h/g liver |
| CC(=O)N[C@H](CSSC[C@H](N)C(=O)O)C(=O)N[C@H](C)C(=O)N[C@H](CCCNC(=N)N)C(=O)N[C@H](CCCNC(=N)N)C(=O)N[C@H](CCCNC(=N)N)C(=O)N[C@H](C)C(=O)N[C@H](CCCNC(=N)N)C(N)=O | – | 5/6 nephrectomized rat | dose not given | – | parathyroid gland hyperplasia | decreased |
| C=CC(OS(=O)(=O)O)c1ccc(OC)cc1 (stereo not drawn) | – | male rat, liver | sulfonation | – | catalytic efficiency | 3 mL/h/g liver |
| C=C(C[C@H](N)C(=O)O)C(=O)O | – | newborn rat spinal cord | – | reference: L-glutamate | relative depolarizing potency | 10 |
| NC(=O)C1(NC(=O)[C@H](Cc2ccccc2)NC(=O)[C@@H](Cc2c[nH]c3ccccc23)NC(=O)[C@@H](Cc2csc3ccccc23)NC(=O)C2CCNCC2)CCNCC1 | gastric emptying acceleration | healthy human, plasma | – | – | EC50 | ~0.49 ng/mL (≈ 0.619 nM) |
| CC#N.Cc1ccc(O)c(CN(CCN(Cc2ccccn2)Cc2ccccn2)Cc2ccccn2)c1.[Mn+2] | – | – | concentration not given, pH 7.4, water exchange | – | activation enthalpy | 6.36 kcal/mol |
| Cc1nc(N(C)C)nc(C)c1O | styrene autoxidation | – | 323 K | – | inhibition rate constant | 8.6e+06 M⁻¹ s⁻¹ |
| CC1=CCC23OC2(C)CCC2C(CN(C)C)C(=O)OC2C13.Cl (stereo not drawn) | – | sarcoma M-1, rat | intraperitoneal and intratumoral, dose not given | – | tumour growth inhibition | 72 to 79% |
| CO[C@@H]1[C@H](O)[C@@H](COP(=O)(O)OP(=O)([O-])OP(=O)(O)OP(=O)(O)OC[C@H]2O[C@@H](n3cnc4c(=O)[nH]c(N)nc43)[C@H](O)[C@@H]2O)O[C@H]1n1c[n+](C)c2c(O)nc(N)nc21 | cap-dependent translation, inhibitor | rabbit reticulocyte lysate | preincubated 60 min in lysate | – | IC50 | 4.2 ± 0.1 µM |
| [2H]C([2H])([2H])NC(=O)c1ccc(N2C(=S)N(c3ccc(C#N)c(C(F)(F)F)c3)C(=O)C2(C)C)cc1F | – | human, metastatic castration-resistant prostate cancer | dose not given | – | activity | active |
| C[n+]1cn([C@@H]2O[C@H](COP(=O)([O-])OP(=O)(O)CP(=O)(O)OP(=O)(O)OC[C@H]3O[C@@H](n4cnc5c(=O)[nH]c(N)nc54)[C@H](O)[C@@H]3O)[C@@H](O)[C@H]2O)c2nc(N)nc(O)c21 | cap-dependent translation, inhibitor | rabbit reticulocyte lysate | preincubated 60 min in lysate | – | IC50 | 3.8 ± 0.2 µM |
| C=CCC(=N)NCCC[C@H](N)C(=O)O | – | hippocampal slices | 0.1 µM | – | long-term potentiation | decreased |
| COc1cc(NC(C)=O)c2c(c1O)-c1c(OC)c(OC)cc3c1C(C2)N(C)CC3 (stereo not drawn) | – | mouse H22 hepatoma model | oral, 200 mg/kg/day | – | tumour growth inhibition | 52.7% |
| CCOC(=O)Cc1nc2c(C#N)cnn2c2c1C(C(=O)OCC)C(C(=O)OCC)=C(NC1CCCCC1)O2 (stereo not drawn) | free radical scavenging | – | – | – | IC50 | 12.1 ± 0.4 µM |
| CC/C=C\C/C=C\C/C=C\C/C=C\C/C=C\C/C=C\CCC(=O)OC(CO)COP(=O)([O-])OCC[N+](C)(C)C (stereo not drawn) | refers to: docosahexaenoic acid | normal adult mice | dietary, dose not given | reference: untreated | brain DHA level increase | > 2 fold |

A few entries again:
| Compound | test | test system | setting | how to read | measurement | result |
| --- | --- | --- | --- | --- | --- | --- |
| CCOC(=O)Cc1nc2c(C#N)cnn2c2c1C(C(=O)OCC)C(C(=O)OCC)=C(NC1CCCCC1)O2 (stereo not drawn) | free radical scavenging | – | – | – | IC50 | 12.1 ± 0.4 µM |
